Assay results of several laboratories.
Numbered parts are unrelated; each lists some results of a single study. Several values in a cell are separate wells, animals, samples, runs or records. ± marks the error that the study gave.
Chain of UniProt Q12809 (whole entry, looked up): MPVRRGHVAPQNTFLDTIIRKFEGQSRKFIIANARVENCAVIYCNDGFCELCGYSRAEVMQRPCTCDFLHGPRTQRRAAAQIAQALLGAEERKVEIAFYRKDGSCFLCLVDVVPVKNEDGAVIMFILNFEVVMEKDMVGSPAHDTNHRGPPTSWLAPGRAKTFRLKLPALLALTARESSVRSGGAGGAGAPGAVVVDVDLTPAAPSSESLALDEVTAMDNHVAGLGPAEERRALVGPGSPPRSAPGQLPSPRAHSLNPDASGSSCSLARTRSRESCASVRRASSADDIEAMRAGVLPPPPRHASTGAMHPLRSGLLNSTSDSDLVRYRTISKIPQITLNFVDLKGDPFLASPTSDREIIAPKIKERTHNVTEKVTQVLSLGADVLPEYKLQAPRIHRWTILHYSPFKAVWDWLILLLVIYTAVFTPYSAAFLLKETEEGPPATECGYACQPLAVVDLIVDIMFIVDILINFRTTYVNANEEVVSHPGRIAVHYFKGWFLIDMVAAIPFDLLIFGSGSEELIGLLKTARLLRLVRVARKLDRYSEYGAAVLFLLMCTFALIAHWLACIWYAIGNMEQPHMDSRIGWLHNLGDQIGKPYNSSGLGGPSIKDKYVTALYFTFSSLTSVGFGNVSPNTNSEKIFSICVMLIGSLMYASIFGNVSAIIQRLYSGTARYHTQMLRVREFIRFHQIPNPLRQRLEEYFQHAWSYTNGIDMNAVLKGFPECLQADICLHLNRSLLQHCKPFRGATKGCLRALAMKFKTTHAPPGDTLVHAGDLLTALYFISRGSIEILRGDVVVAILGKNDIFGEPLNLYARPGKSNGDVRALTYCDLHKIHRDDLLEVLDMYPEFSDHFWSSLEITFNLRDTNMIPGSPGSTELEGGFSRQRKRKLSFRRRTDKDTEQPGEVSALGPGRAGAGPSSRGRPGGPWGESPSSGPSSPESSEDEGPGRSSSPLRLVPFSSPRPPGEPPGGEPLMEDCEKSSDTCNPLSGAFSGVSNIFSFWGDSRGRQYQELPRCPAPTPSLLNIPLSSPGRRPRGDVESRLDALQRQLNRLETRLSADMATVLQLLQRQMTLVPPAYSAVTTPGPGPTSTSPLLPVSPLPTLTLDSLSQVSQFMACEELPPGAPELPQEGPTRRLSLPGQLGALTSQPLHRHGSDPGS

Study 1
SMILES: CN1CCC[C@H]1COc1nc2c(c(N3CCN(C(=O)C4CC4)[C@@H](CC#N)C3)n1)CCN(c1cccc3cccc(Cl)c13)C2
Effect on: binding
Mode: competitor
Method: NanoBRET
Cell line: HEK293
KRAS Q61H: GTPase KRas (KRAS, Homo sapiens, UniProt P01116, Q61H)
| target | conditions | normalized BRET |
| --- | --- | --- |
| KRAS Q61H | 5.08 nM | 96.3% and 98.1% and 98% |
| KRAS Q61H | 137 nM | 96.9% and 98.6% and 96.3% |
| KRAS Q61H | 15.2 nM | 96.3% and 100% and 103% |
| GTPase KRas (KRAS, Homo sapiens, UniProt P01116, G12D) | 5.08 nM | 109% and 102% and 99.1% |
| KRAS Q61H | 1.69 nM | 99.7% and 95.2% and 95.9% |
| GTPase KRas (KRAS, Homo sapiens, UniProt P01116, G13D) | 33.3 µM | 6.24% and 4.68% and 3.96% |

Study 2
Target: Sodium-dependent neutral amino acid transporter B(0)AT1 (SLC6A19, Homo sapiens, UniProt Q695T7)
Chain of UniProt Q695T7 (whole entry, looked up): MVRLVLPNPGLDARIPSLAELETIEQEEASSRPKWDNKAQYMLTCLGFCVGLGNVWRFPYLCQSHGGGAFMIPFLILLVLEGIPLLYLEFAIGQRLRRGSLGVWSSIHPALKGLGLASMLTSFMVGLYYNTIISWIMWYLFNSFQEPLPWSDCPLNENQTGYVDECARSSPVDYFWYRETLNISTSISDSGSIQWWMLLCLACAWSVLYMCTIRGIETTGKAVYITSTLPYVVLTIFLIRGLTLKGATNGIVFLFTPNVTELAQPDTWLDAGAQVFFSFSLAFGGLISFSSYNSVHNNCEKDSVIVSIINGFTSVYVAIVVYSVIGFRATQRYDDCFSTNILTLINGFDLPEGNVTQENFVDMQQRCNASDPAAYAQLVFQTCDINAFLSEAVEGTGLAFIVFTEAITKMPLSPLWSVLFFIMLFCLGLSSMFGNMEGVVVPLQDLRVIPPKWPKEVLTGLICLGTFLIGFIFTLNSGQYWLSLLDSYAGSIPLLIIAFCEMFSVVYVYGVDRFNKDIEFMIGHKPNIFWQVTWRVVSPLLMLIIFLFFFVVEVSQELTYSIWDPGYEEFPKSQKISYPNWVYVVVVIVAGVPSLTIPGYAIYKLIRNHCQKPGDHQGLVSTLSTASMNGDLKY
Mode: inhibitor
Method: FLIPR membrane potential
Cell line: CHO-BC
Added: 1.5 mM L-leucine
| Structure (SMILES) | IC50 [nM] |
| --- | --- |
| CCCNC(=O)COc1cc(C)c(Cl)c(C)c1 | 3400 ± 1100 |
| Cc1cc(OCC(=O)NC(C)C)ccc1I | 230 ± 60 |
| CCNC(=O)CNc1ccc(I)c(C)c1 | 33 ± 5 |
| CCCNC(=O)CNc1ccc(Br)c(C)c1 | 40 ± 3 |
| Cc1cc(NCC(=O)NC(C)C)cc(C)c1I | 99 ± 5 |
| Cc1cc(NCC(=O)NC(C)C)ccc1I | 27 ± 5 |
| CCNC(=O)COc1cc(C)c(Cl)c(C)c1 | 620 ± 70 |
| CCNC(=O)COc1ccc(Br)c(C)c1 | 81 ± 6 |

Study 3
Target: E3 ubiquitin-protein ligase NEDD4 (Homo sapiens, UniProt P46934)
Effect on: enzyme activity
Mode: inhibitor
Method: TR-FRET
Tested at: 33 µM
Construct (P46934 938-1319, limits assumed): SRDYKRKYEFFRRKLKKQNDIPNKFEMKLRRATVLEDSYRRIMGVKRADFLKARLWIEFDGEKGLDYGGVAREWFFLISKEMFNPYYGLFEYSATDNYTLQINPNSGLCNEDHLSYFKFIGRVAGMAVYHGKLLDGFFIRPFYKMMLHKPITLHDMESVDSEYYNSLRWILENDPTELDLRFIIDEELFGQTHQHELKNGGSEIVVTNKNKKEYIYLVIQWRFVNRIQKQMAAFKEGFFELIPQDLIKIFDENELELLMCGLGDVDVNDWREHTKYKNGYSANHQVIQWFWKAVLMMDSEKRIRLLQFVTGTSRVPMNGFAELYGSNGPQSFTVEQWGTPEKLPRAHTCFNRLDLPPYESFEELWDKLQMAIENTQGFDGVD
| SMILES | inhibition [%] |
| --- | --- |
| CNC(=O)/C=C/CNCCCN1c2ccccc2CCc2ccc(Cl)cc21.Cl | 38.5 |
| CNCCCN1c2ccccc2CCc2ccc(Cl)cc21 | 0 |
| C=CC(=O)NCCCN1c2ccccc2CCc2ccc(Cl)cc21 | < 10 |
| COC(=O)CCCNCCCN1c2ccccc2CCc2ccc(Cl)cc21.COC(=O)CCCNCCCN1c2ccccc2CCc2ccc(Cl)cc21.O=C(O)/C=C/C(=O)O | 29.2 |
| Cl.NC(=O)/C=C/CNCCCN1c2ccccc2CCc2ccc(Cl)cc21 | 34.2 |

Other studies, line by line
| SMILES | target | test | conditions | endpoint | result |
| --- | --- | --- | --- | --- | --- |
| Cn1cc(-c2cccc(CN3CCC4(CC3)COc3c4ccc4c3CN([C@H]3CCC(=O)NC3=O)C4=O)c2)cn1 | Voltage-gated inwardly rectifying potassium channel KCNH2 (KCNH2, Homo sapiens, UniProt Q12809) | hERG current, manual patch clamp | 30.00 µM | mean inhibition | 43.4% |

A few entries again (study 1):
| target | conditions | normalized BRET |
| --- | --- | --- |
| KRAS Q61H | 15.2 nM | 96.3% and 100% and 103% |
| GTPase KRas (KRAS, Homo sapiens, UniProt P01116, G12D) | 5.08 nM | 109% and 102% and 99.1% |
| KRAS Q61H | 1.69 nM | 99.7% and 95.2% and 95.9% |
